Experimental data gathered from unrelated publications.
Lines come from different studies, so protocols differ. Several values in a cell are separate wells, animals, samples, runs or records. ± gives the spread as reported.

O=C1NC2(CC2)COc2ncc(F)cc2[C@H]2COCCN2c2ccn3ncc1c3n2 — result for “serum total bilirubin”: 1.4 ± 0.3 µmol/L (Sprague-Dawley rat, male, serum; oral, 10 mg/kg/day, end of recovery, 4-week subacute toxicity).
The IC50 of Cc1ccc2c(Br)cc(Br)c([O-])c2n1.Cc1ccc2c(Br)cc(Br)c([O-])c2n1.[Co+2].c1cnc2c(c1)c1nccnc1c1cccnc12 is reported as 62.1 ± 1.09 µM (HL-7702 normal hepatocytes; cell viability, MTT; 48 h).
With COc1ccccc1-c1n[nH]c2nc(NC3CCN(C(=O)Cc4ccc(F)cc4F)CC3)ncc12 the relative abundance was 0.98 (bead binding, competition bead pull-down, refers to: LINJ.35.3150; Leishmania donovani extract; 10 µM; baseline: vehicle).
CC(=O)N[C@H](C(=O)N[C@@H](CCCNC(=N)N)C(=O)N[C@@H](CCCCN)C(=O)N[C@@H](CCCNC(=N)N)C(=O)N[C@H](C(=O)N[C@@H](CC(C)C)C(=O)N[C@@H](CCCNC(=N)N)C(=O)N[C@@]1(C)CCCC=CCCC[C@@](C)(C(=O)N[C@@H](CCCNC(=N)N)C(=O)N[C@@H](CCC(=O)O)C(=O)N[C@@H](CC(C)C)C(=O)N[C@H](C(=O)N[C@@H](CCC(=O)O)C(N)=O)C(C)C)NC(=O)[C@H](CCC(N)=O)NC(=O)[C@H](CC(C)C)NC(=O)[C@H](CC(C)C)NC1=O)[C@@H](C)O)C(C)C has an IC50 of 13 µM (A-431; cell viability; 18 h, serum-free).
For CCCCCCCC(=O)NCCCC[C@H](NC(=O)CCCCCCC)C(=O)N[C@@H](CCCCNC(=O)CCCCCCC)C(=O)NCC(=O)NCC(=O)NCC(=O)N[C@@H](CS)C(=O)N[C@@H](CCCNC(=N)N)C(=O)N[C@@H](CCCCN)C(=O)N1CCC[C@H]1C(=O)N[C@@H](CS)C(=O)N[C@@H](CCCNC(=N)N)C(=O)N[C@@H](CCCCN)C(=O)N1CCC[C@H]1C(=O)N[C@@H](CS)C(=O)N[C@@H](CCCNC(=N)N)C(=O)N[C@@H](CCCCN)C(=O)N1CCC[C@H]1C(N)=O, the IC50 was 168 µM (HEK293; cell growth or viability, MTT; 24 h).
The survival of Cc1cc(C(=O)Nc2nc3cccc(C)c3n2[C@H]2CCCCN(C(=O)/C=C/CN(C)C)C2)ccn1 is reported as 16.7% (Trypanosoma brucei; STIB795, mouse acute HAT model; oral, 25 mg/kg once daily for 4 days, day 28; baseline: mice).
With COC(=O)[C@@H](NC(=O)[C@@H](NC(=O)[C@@H](NC(=O)[C@@H]1CCCN1C(=O)[C@H](C)NC(=O)OC(C)(C)C)C(C)C)C(C)C)C(C)C the IC50 was 506 µM and 287 µM and 442 µM (HEK293; cell growth or viability, SRB).
Cc1cc(Nc2nc(C[C@@]3(C(=O)O)CCN(Cc4cccc(Cl)c4F)[C@H](C)C3)cc(C)c2F)[nH]n1 has an IC50 of 0.0081 µM (SH-SY5Y; cell growth or viability, ATP luminescence; 5 days).
O=C1C=CC(=O)c2ccccc21 gave an IC50 of 5.12 µM (MOLT-3; cell growth or viability, XTT).
Oc1cccc2cccnc12.Oc1cccc2cccnc12.[Cl][Fe]([Cl])[Cl] has an IC50 of 2.2 ± 0.8 µM (A2780; viability, MTT; 96 h).
CC(C)(C)C(=O)OCOP(=O)(OCOC(=O)C(C)(C)C)C1CCCN(O)C1=O (stereo not shown) has a log GI50 of -6.26 log M (SNB-19).
Cc1cc(Oc2nc(N3CC[C@@H](c4ccncc4)C3)ncc2F)[nH]n1 gave an IC50 of 56.2 µM (BT-20; cell growth or viability).
CSCC[C@H](NC(=O)[C@H](CCCNC(=N)N)NC(=O)[C@H](CCCNC(=N)N)NC(=O)[C@@H](N)CCCCN)C(=O)N[C@@H](CCCCN)C(=O)N[C@@H](Cc1c[nH]c2ccccc12)C(=O)N[C@@H](CCCCN)C(=O)N[C@@H](CCCCN)C(=O)N[C@@H](CC(C)C)C(=O)N[C@@H](CCC(=O)O)C(=O)N[C@H](C(=O)N[C@@H](C)C(=O)N[C@H](C(=O)N[C@@H](CC(N)=O)C(=O)N[C@@H](CC(C)C)C(=O)N[C@@H](C)C(=O)N[C@@H](Cc1c[nH]c2ccccc12)C(=O)O)C(C)C)[C@@H](C)O gave an IC50 of > 15 µM (MEC1; cell growth or viability, flow cytometry; 90 min).

Excerpt of the above:
O=C1C=CC(=O)c2ccccc21 gave an IC50 of 5.12 µM (MOLT-3; cell growth or viability, XTT).
